Experimental data of several laboratories.
Lines come from different studies, so protocols differ. ± marks the error that the study gave.

| Substance | assay | test system | setting | scale | inhibition [%] |
| --- | --- | --- | --- | --- | --- |
| O=C(NCc1ccc(CNS(=O)(=O)c2cccc(Cl)c2)cc1)c1ccc(F)cc1 | carrageenan paw oedema | mouse C57BL/6J female | ip, 10 mg/kg daily, 74 h | reference: vehicle | ~20 |
| C[n+]1cccc2c(N)cccc21 | measured: 1-MNA | mouse, epididymal white adipose tissue | subcutaneous, 25 mg/kg once daily for 5 days, 1 h post-dose | reference: 1-MNA level at 8 h post-dose | ~70 |
| O=C(c1cc(Cc2n[nH]c(=O)c3ccccc23)ccc1F)N1CCN(C(=O)C2CC2)CC1 | PARylation in tumour | mouse, MDA-MB-436 xenograft, tumour | 25 mg/kg, 12 h | – | 72 |
| O=C(NCc1ccc(CNS(=O)(=O)c2ccc(CN3CCCC3)cc2)cc1)c1ccc(F)cc1 | carrageenan paw oedema | mouse C57BL/6J female | ip, 10 mg/kg daily, 74 h | reference: vehicle | ~20 |
| AGEDPHGYFLPGQFA | RANTES expression | peptide, peritoneal macrophages, C57BL/6 mouse | 1 pM, 15 h, pretreated 1 h, optimal dose, added: LPS 100 ng/ml + IFN-γ 20 ng/ml | – | 47 |
| CNC(=O)c1cc(Oc2ccc(NC(=O)Nc3ccc(Cl)c(C(F)(F)F)c3)cc2)ccn1 | tumour volume | nude mouse, subcutaneous MHCC97H | oral, 2 mg/kg every 2 days, 10 doses, 21 days, cells transfected | – | 65 ± 9.16 |
| PHGYFLPGQFAFS | TNF-α expression | peptide, peritoneal macrophages, C57BL/6 mouse | 100 pM, 15 h, pretreated 1 h, optimal dose, added: LPS 100 ng/ml + IFN-γ 20 ng/ml | – | 10 |
| C[C@]12CCCN1CC1=NNC(=O)c3cc(F)cc4[nH]c2c1c34 | PARylation, measured: PAR | MDA-MB-436 xenograft, mouse, tumour | 1.5 mg/kg single dose, throughout first 12 h | – | ~81 |
| AQAGEDPHGYFLPGQFAFS | TNF-α expression | peptide, peritoneal macrophages, C57BL/6 mouse | 100 pM, 15 h, pretreated 1 h, optimal dose, added: LPS 100 ng/ml + IFN-γ 20 ng/ml | – | 21 |
| CC(C)Cc1ccc(C(C)C(=O)O)cc1 (stereo not shown) | analgesic activity | mouse, acetic acid writhing | oral, 20 mg/kg, 30 min before acetic acid | reference: vehicle | 74.1 |
